Measured values from different studies.
Numbered parts are unrelated; each lists some results of a single study.

Block 1 — technique: RNA Bind-n-Seq; form: RNA; medium: in vitro; tested at: 365 nM; reference: no-protein control; reading: higher = stronger binding; endpoint: RBNS enrichment (R)
Target: RNA binding protein fox-1 homolog 2, RRM domain, GST-SBP tag (RBFOX2, Homo sapiens, UniProt O43251-10, residues 100-194)
Notes: natural RNA segment, single round, ends assumed
Target sequence (chain): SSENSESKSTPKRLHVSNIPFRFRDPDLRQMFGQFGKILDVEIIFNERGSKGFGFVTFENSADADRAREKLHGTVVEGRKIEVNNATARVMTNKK
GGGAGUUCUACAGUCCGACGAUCGUUUUUUUUUUUAAGACAAAAAAGAUGUUUAAAGACCAAAAACUGUGCUGAGAAAGUAUGCCCCACCUAUCUUUGGUAUAUGAUAGGUUACAUAAAAGGAAGGUAUUGGCUGGAAUUCUCGGGUGCCAA: 0.372
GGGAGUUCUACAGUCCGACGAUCAUGUUCAUGCCAAAAACAAAUUGUCCCCAAGCCUAUAUGUAUUAAAAUGUUAACUUUGCCUAAAAAUAUUGCAGUGACUUUUUAGGCAGGAGUGCCAAAGGACACUAUGAUGGAAUUCUCGGGUGCCAA: 1.16
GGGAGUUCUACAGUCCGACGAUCGAAGCUGAAUGGAAUCUGACGGUUGGGAGUGGUGGAAAUUGGAAGGAUACCAGGAGGUAUUUGGGAAGGCCAAUGGCGUGGCUCCUUUGAGGAAAUAAAACACUAAGCAUUGGAAUUCUCGGGUGCCAA: 1.39
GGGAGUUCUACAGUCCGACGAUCUCUCCCCGCGAGUGCAGUCGGAUGCCGUUGUCCCCAAGGGCCAGGCCGAACUCGCCCCACACCUGCGGGCGCCUGGCUGCCGACGCCGGUGGAGGCCACGCCGUCGGUCGUGGAAUUCUCGGGUGCCAA: 0.233
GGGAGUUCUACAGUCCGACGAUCAUUUAAAUUGUGCACAGCAACAGGUUCUCAGUUCUGCCAGUUCCUUUAUGCUCCUGUAAUCGGCUAACUGUGGAUUUGAUGUCAAGUAUGCAUGUUACCUUAUGUGUAUUUGGAAUUCUCGGGUGCCAA: 2.47
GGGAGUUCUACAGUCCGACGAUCUCUUUGGUUUGUGCUAGGCCCCCGGGUGUGAAGCACAGACCCCUUCCAGGGGUUUACAGUCUAUUUGAGACUCCUCAGUUCUUGCCACUUUUUUUUUUAAUCUCCACCAGUGGAAUUCUCGGGUGCCAA: 0.676
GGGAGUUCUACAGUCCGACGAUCAGUGGCUGCUGGCUCUCAAGCUGCCAUUUUUUCCUGAUGCAAAAAAUGAAAGCAGGCAAAAGUGCUGUCAUUGUGAUACCGUCCCACUCAGAUGUCUAACGGGAGCUUGCUGGAAUUCUCGGGUGCCAA: 0.535
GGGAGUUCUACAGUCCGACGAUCAACGUCCCAGCAGUCUUGGUAAAAGGAGGGAGCCUGCUGAGCCAGGAGGGAGAAAAGAAGAUUGACCAGCUUGCUAGAAAAAUACUUAGCUUUUCUUUUUCUUUUUUUGUUGGAAUUCUCGGGUGCCAA: 0.868
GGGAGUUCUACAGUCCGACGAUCCUGUCAGAGCCCACCUAGAAGCAGGCUCCUAGUGAUACUUUGUUUCCAAGGCAGAAGUGGCCCAUGAGUGGCCCCAGAGCAGAGGUGCCCCAGGCAGUGCAGCUCCCUGGUGGAAUUCUCGGGUGCCAA: 0.29
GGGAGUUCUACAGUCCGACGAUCGAUGCCAAUGGCUUGAAUUGAGUUCUUUUCAAGAACUGAUAGACUAUUUGGUAUGAAGUAGCAAAGCUACCUAGGAAGGUUAAAAAAUUAUGUACAUCAAAGAUAUCCUAUGGAAUUCUCGGGUGCCAA: 0.309
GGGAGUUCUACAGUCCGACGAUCCUGCAGCGCGUGCGCGGUGAGAGGCCCUUUUUGAGCCUGUUUACUCCUGUGGCCUUGGGCAGAACAGUAAAUACUCUGUGCACGGAGGAAAGACAUGCCCAAGAGGAAGGUGGAAUUCUCGGGUGCCAA: 0.519
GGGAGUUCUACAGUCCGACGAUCGUAGGAGUGGACCCUGCCACUGGCCCCAUCGGAGCCGGAAAGCCAAGGAGGAAGGGACAGAGCUAGAAUCAGUGCCACUUUGCAGCAGCAAGGAUCCAGACGAAGUGGAAUGGAAUUCUCGGGUGCCAA: 0.523

Block 2 — technique: protein-binding microarray; form: double-stranded DNA, one strand shown; medium: in vitro; tested at: 250 nM; notes: 60-bp whole probe; with: salmon DNA 0.4 mg/ml; reference: random background probes; reading: higher = stronger binding; endpoint: log fluorescence; shared flanks, not repeated: GCCTAGCAC … GTCTTGATTCGCTTGACGCTGCTG
Target: Interferon regulatory factor 5, full length, phosphomimetic (IRF5, Homo sapiens, UniProt Q13568-2, residues 1-514, K96S/S451D/S453D/S456D/S462D)
GACTGTTCCCTTTTCCTGACGTGCTAG: 0.567 z-score
GACGGACTGGGACTGGGGGCGTGCTAG: 0.0966 z-score
TTAGGTATCCTACTACTTTAGTGCTAG: -0.0297 z-score
TTTTTTTTCTGATCCATTTTGTGCTAG: 1.86 z-score
TCACCCCTAGGGGGCAGTATGTGCTAG: 0.286 z-score
GATGGTATCGGTATCGGGACGTGCTAG: 7.39 z-score
GACGAACTGGGCTATCGAGACGTGCTA: 0.263 z-score
TTAGCTCTCGGTATCGGTTAGTGCTAG: 5.57 z-score
TTAGCACTGAGTCTCGATTAGTGCTAG: 0.553 z-score
TTAGGTTTCGGGCATCGGTTAGTGCTA: 7.06 z-score
GACGCACTGGGTTTCGGGACGTGCTAG: 2.47 z-score
TCACATCTCCAGTAGCCTACTGTGCTA: 0.245 z-score
TTAGGACTGGACTTTGGGTTAGTGCTA: -0.432 z-score
GACGATATCGGGTTTAGAGACGTGCTA: 1.58 z-score
CGTATCTTCATTGTCATGTAGTGCTAG: 0.686 z-score
GACGGACTGGGTCTCTGGACGTGCTAG: -0.631 z-score
TTAAGTCTCCTTCTCCTTTAGTGCTAG: 0.253 z-score
GACGGACTGCTTCGCCTGACGTGCTAG: -0.658 z-score
GACGGTCCCCTTTTCCTGACGTGCTAG: -0.271 z-score
TTCCTTATTGCTTCCTCTTTGTGCTAG: 1.41 z-score
TTAGATATAAGTATCGATTAGTGCTAG: 6.28 z-score
TCATGTCTCTGGCCTGGGACTGTGCTA: -0.178 z-score
GGAGAAAAATCATGAAAATAGTGCTAG: 0.472 z-score

Block 3 — technique: RNA Bind-n-Seq; form: RNA; medium: in vitro; tested at: not given; reference: input RNA pool; reading: higher = stronger binding; endpoint: bound/input enrichment
Target: RING finger protein unkempt homolog, zinc fingers 1-6, GST-SBP tag (UNK, Homo sapiens, UniProt Q9C0B0, residues 30-357)
Notes: RNA with constant flanks, human and mouse sites, ends assumed
Target sequence (chain): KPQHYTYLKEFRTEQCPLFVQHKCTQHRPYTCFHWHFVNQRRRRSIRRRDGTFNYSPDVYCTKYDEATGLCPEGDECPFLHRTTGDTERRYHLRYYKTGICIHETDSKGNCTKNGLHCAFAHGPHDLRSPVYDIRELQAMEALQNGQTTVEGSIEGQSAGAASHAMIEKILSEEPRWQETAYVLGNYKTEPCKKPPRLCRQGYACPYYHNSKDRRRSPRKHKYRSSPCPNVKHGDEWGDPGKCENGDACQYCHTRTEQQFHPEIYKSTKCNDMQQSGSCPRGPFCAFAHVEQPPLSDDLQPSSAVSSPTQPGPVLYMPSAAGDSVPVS
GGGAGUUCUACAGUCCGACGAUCAGGAAGAACUAUGCAUCUGCCUCUCUCUCUGAAUUCCUGUCUGAGGAAGUAGAAGCAGAAGUGAAAGCAGCUGCAGAGAUAUCUAUGGGAACAGAGGUUUCUGAAGAAGAUAUUUGCAACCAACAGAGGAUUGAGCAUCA: 0.206 ratio
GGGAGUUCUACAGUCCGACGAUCGAGUCAUGCAACGGUUCACACCAGGCAAGGGGGGAUCCACUCAGUGGAGCAUCUGAUAGGAUGAAAGAAGCAUCAGUCAACCCAUCGGGAGCCCGAGAAGAACAAGAGGCUCACACUGACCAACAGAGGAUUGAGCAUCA: 0.104 ratio
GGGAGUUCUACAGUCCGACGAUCCGUGCUUUUGAAGACGAUGAUAUCACGCAUGUUGAAGGAAGUGUAGAUCCCAUCCGAGACAUAGAGAUAAUUCACGAGGAGCUCCAGCUGAAGGACGAGGAGAUGAUUGGGCCCAUUCUACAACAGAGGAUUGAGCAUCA: 0.711 ratio
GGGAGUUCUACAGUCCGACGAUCGGAUUUUUUUCUGUGUAAAUCAUCAAGUAUAAGAAGAAACUAUGGGACUCUGAGCCUUGCUUUAGAGAAUUUACAGUGGACAAAUAGGUGUCAUCAAACCAGUUUUUAAUCAUUCUGACUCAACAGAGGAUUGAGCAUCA: 4.31 ratio
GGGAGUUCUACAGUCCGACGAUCCCUCUUCUGGCCUGCCUCCUUGGCAACGACAUAAUCCCAGAGGGCAUGUUUGAAAGCUUUAGGUACAAAUGCUUAUCGUCCUACACCUCUGUAAAAGAGAACUUUGACAAAAAAGGUAACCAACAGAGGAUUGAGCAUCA: 0.382 ratio
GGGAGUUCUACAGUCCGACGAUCGAUUACUUCAAAUUUGAUGUCUUUUAUUGCAUGAACAUUACGGAUAUUGAUGACAAGAUCAUCAAGAGGGCCCGGCAGAACCACCUGUUCGAGCAGUAUCGGGAGAAGAGGCCUGAAGCGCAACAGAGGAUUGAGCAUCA: 0.217 ratio
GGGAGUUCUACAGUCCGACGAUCCCAGACAGCCCAUCCCCAGACCGAUUUGGGAUGUUGCCCCUGGAUGAGCCUGCUAUUCUUGUUAGUGAAUUCCUAGAUCGUUUUCAAAGCCUUUGUCACUUGGACCUCCAGCUUCCUUCCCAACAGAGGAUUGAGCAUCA: 0.358 ratio
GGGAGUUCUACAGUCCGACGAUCUUCGUACCAGUUAUUAAACUCUGUUUUGAUGGGAUAGAGAUUGAUAUUUUGUUUGCAAGAUUAGCACUGCAGACAAUUCCUGAAGAUUUGGAUCUACGAGAUGACAGUCUGCUAAAAAAUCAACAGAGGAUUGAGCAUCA: 0.0963 ratio
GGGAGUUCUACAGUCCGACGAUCCCUGAGAUAGUGCUGUGGUUAUAAUGUCUUUUACUAUUGUAUUAAUGGCUAGCCUGUUACAUUAGACUGGGGGGGGGGUACAGAGGUCUGCUGUUUUGUGAGGCUUUUUGUUUUUUUGGGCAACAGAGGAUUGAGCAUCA: 0.668 ratio
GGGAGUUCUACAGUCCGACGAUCAGUGGUGCCACCUACCCCAACAUCCCCCUCUCUUCUCCCUUGCCUGGAGUACCCAAGCCUAUUUUUGCAACAGUUGAUGGACAGGAAAAGUUUGAAACCAAAGUUACCACUCUGGACAAUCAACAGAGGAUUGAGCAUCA: 0.573 ratio
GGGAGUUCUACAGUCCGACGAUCCUUCUGAAGGCAGCUGCAGGUCCAUCCCAUUGACAUAGCUGCUAUGGCACAGGAGCUUUGUAGCUGUGGAACCAACACUGCUUUUGCAUACUGUGUAGAAGAAUUCUUUAGGAGUGGGGACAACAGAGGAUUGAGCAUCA: 0.488 ratio

Block 4 — technique: protein binding microarray; form: double-stranded DNA, one strand shown; medium: in vitro; tested at: not given; reference: not given; reading: higher = stronger binding; endpoint: E-score
Target: Histone acetyltransferase KAT6A, winged helix 2, GST fusion (KAT6A, Homo sapiens, UniProt Q92794, residues 85-181)
Notes: 8-mer, flanks averaged, mean of 2 arrays, mostly near background
Construct (chain): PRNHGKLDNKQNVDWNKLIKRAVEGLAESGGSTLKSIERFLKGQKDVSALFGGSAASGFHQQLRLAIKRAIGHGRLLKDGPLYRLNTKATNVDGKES
ACCTGGCC: 0.0398
AACACCGA: -0.067
GGTCTTCA: -0.0518
AGTTGAAA: -0.0208
AGTCGCGG: 0.0552
GGACCCGA: 0.168
GCCCCTCA: -0.0629
CGCGACAG: 0.129
ACAAAAGA: -0.00421
CGGAATAA: 0.0559
CGGCCAAA: 0.201
ACCGGCAA: 0.0142
GGAAGCCC: 0.103
AAATCACG: 0.0562
CCGAGGAG: -0.0876
GTTTCAGA: 0.0855
AACACCAA: -0.198
TAACAAAA: 0.105
AATTTTAT: 0.248
ACCAATTG: -0.0209
AGCCGCCA: 0.0118
GGAGGCGA: 0.0222
GGCCCACC: 0.182
ATTGCTCG: -0.0568
ACCTCACG: 0.0752

A few entries again (block 1):
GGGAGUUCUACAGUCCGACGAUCGAAGCUGAAUGGAAUCUGACGGUUGGGAGUGGUGGAAAUUGGAAGGAUACCAGGAGGUAUUUGGGAAGGCCAAUGGCGUGGCUCCUUUGAGGAAAUAAAACACUAAGCAUUGGAAUUCUCGGGUGCCAA: 1.39
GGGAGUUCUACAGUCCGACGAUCUCUCCCCGCGAGUGCAGUCGGAUGCCGUUGUCCCCAAGGGCCAGGCCGAACUCGCCCCACACCUGCGGGCGCCUGGCUGCCGACGCCGGUGGAGGCCACGCCGUCGGUCGUGGAAUUCUCGGGUGCCAA: 0.233
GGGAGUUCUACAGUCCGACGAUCAUUUAAAUUGUGCACAGCAACAGGUUCUCAGUUCUGCCAGUUCCUUUAUGCUCCUGUAAUCGGCUAACUGUGGAUUUGAUGUCAAGUAUGCAUGUUACCUUAUGUGUAUUUGGAAUUCUCGGGUGCCAA: 2.47
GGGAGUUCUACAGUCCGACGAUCUCUUUGGUUUGUGCUAGGCCCCCGGGUGUGAAGCACAGACCCCUUCCAGGGGUUUACAGUCUAUUUGAGACUCCUCAGUUCUUGCCACUUUUUUUUUUAAUCUCCACCAGUGGAAUUCUCGGGUGCCAA: 0.676
